Measured values from different studies.
A part holds a random share of what one study measured.

Study 1
Target: Fragile X messenger ribonucleoprotein 1, C-terminal low-complexity region (Fmr1, Mus musculus, UniProt P35922)
Method: RNA Bind-n-Seq
Form: RNA
Medium: in vitro
Tested at: 200 nM
Setting: whole 134-nt RNA, ends assumed
Together with: 150 mM LiCl
Reference: input library
Reading: higher = stronger binding
Measurement: log2 enrichment
Each molecule: 7-deaza-guanosine replaces G
Shared flanks, not repeated: GGGAGUUCUACAGUCCGACGAUC … UGGAAUUCUCGGGUGUCAAGG
UUAUCUGUGGACUUCACCCAAAAGGAGUGGCAGCUACUGGAUCCCUCUCAGAAGAAUUUAUACAAGGAUGUGAUGUUGGAGAACUAUAGC: -1.4
UUGUGGAAAACCCACAUGCUCCUCAGAAAGAUGAUGCCCUGGUGAUCACACACUACAACCGGACCCGACAGCAGGAAGAGAUGCUGGGGC: -0.84
CAAGUCCUGUGCUACACAUCGUAUGUACCGAAUCGGGCCCCGGGCCCCGGCCCCGGAAAGUAUUAUGUUACGCCGUUCGGAUCUGCACUU: -1.99
AAGUCCUGUGCUACACAUCGUAUGUACCGAAUCGGGGAAAGGAAAGGGGAAAGGGGAAAGUAUUAUGUUACGCCGUUCGGAUCUGCACUU: 0.286
GUCCUGUGCUACACAUCGUAUGUACCGAAUCAAACCCCCAAAUUUAAAUUUUUUUAAAAAAGUAUUAUGUUACGCCGUUCGGAUCUGCAC: 0.933
UUUGAAAAAGAAGAAAAAGAAAAAGAAGGGUAAGGCAUUAAAAAAGUCUUUAUAAAUUUUCUCCAAAAUAAAUGUUUGAUUUUAGCCCUA: -2.91
UCAAGUCCUGUGCUACACAUCGUAUGUACCGAAUCGGGGAAGGGAAGGGAAGGGAAAGUAUUAUGUUACGCCGUUCGGAUCUGCACUUCC: -0.77
UCCUGUGCUACACAUCGUAUGUACCGAAUCGGGGUUUUUUUGGGGAAAAAGGGGAGGGGAAAGUAUUAUGUUACGCCGUUCGGAUCUGCA: -0.915

Study 2
Target: Histone acetyltransferase KAT6A, both winged helices, GST fusion (KAT6A, Homo sapiens, UniProt Q92794, residues 1-181)
Method: protein binding microarray
Form: double-stranded DNA, one strand shown
Medium: in vitro
Tested at: not given
Setting: 8-mer, flanks averaged, mean of 2 arrays, mostly near background
Reference: not given
Reading: higher = stronger binding
Measurement: E-score
Construct (chain): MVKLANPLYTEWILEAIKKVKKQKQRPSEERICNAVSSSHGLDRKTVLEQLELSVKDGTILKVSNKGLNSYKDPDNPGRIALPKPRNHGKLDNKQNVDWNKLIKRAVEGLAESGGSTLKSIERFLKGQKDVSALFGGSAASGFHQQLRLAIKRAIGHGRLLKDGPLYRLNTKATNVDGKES
ACGCGAGT: 0.223
CGCCTTTC: 0.246
ACGATTGA: -0.057
CCATGCAC: -0.144
ATTGGTGA: -0.246
GATTGCAC: -0.00324
ATACCTGG: -0.2
AAAGGAGA: -0.06
GGTGCACA: -0.0554
CCTTTAAC: 0.174
CAGTCCGC: 0.137
ACTTCGTA: -0.128
GGCACCAC: 0.0774
CGTTTGAA: 0.0729
GGCGAAGA: 0.0683
CACCTGTC: -0.0739
ACAACCCC: -0.0367
GCCTCCTA: -0.102
GAGTGTAA: -0.085
AGCGCAGA: 0.196

Study 3
Target: Interferon regulatory factor 7, full length, phosphomimetic (IRF7, Homo sapiens, UniProt Q92985, residues 1-503, S471D/S472D/S475D/S476D/S477D/S483D/S484D/S487D)
Method: protein-binding microarray
Form: double-stranded DNA, one strand shown
Medium: in vitro
Tested at: 2200 nM top
Setting: 60-bp whole probe
Together with: salmon DNA 0.4 mg/ml
Reference: random background probes
Reading: higher = stronger binding
Measurement: fitted relative affinity
Shared flanks, not repeated: GCCTAGCAC … GTCTTGATTCGCTTGACGCTGCTG
Construct (chain): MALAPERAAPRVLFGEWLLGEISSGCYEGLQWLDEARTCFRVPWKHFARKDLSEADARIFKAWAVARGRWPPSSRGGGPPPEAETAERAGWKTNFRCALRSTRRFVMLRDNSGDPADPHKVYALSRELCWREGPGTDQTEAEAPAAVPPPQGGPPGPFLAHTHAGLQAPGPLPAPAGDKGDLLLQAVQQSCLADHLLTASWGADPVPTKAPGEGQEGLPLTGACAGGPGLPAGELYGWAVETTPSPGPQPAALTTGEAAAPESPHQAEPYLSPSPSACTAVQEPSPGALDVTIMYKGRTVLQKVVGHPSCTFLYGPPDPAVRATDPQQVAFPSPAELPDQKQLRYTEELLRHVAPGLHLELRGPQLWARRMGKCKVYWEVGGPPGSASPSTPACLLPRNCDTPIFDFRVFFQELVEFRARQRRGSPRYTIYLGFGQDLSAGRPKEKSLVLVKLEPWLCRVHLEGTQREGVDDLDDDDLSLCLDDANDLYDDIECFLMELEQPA
TTTGGACTGGGGTATCGGTTAGTGCTA: 0.223 z-score
TCAATAATTTTTTTCTAACTGTGCTAG: 0.0595 z-score
GACGGGTTCGACACTGGGGACGTGCTA: -0.21 z-score
GGCGGACTGGACACTGGGGACGTGCTA: -1.65 z-score
TCACCATTGGTCTTCACACTGTGCTAG: 1.33 z-score
GACGATCTCAGACGGGAGACGTGCTAG: -0.199 z-score
GACGGTATCGGGACTGGGCACGTGCTA: -0.693 z-score
GGAGTGGGAAGCTTCGCTCCGTGCTAG: -0.129 z-score
TTAGGTATTCTACTGCTTTAGTGCTAG: 0.519 z-score
GACGGTTTCGGGTTTAGGGACGTGCTA: 7.62 z-score
TTAGATTTCGGGACTGGATTCGTGCTA: 1.14 z-score
TCATTTTTGTAATCGAAAACTGTGCTA: 1.64 z-score
TCACCAATCATTTTTGCACTGTGCTAG: 1.21 z-score
TCTAATTTACTTTGGTTGGCGTGCTAG: 0.491 z-score
TGTTGTCTGTGTTTCCTTGTGTGCTAG: 2.04 z-score
TCAGTTTCCATTTTCTGACTGTGCTAG: 7.61 z-score
GACGGTATCGACTATAGGGACGTGCTA: -0.447 z-score
GAGGGACTGGGGTATCGGGACGTGCTA: -0.918 z-score
TTAGGTTTCGGCACTGGGTTAGTGCTA: 1.81 z-score

Study 4
Target: Sal-like protein 4, full length isoform A (SALL4, Homo sapiens, UniProt Q9UJQ4, residues 1-1053)
Chain of UniProt Q9UJQ4 (whole entry, looked up): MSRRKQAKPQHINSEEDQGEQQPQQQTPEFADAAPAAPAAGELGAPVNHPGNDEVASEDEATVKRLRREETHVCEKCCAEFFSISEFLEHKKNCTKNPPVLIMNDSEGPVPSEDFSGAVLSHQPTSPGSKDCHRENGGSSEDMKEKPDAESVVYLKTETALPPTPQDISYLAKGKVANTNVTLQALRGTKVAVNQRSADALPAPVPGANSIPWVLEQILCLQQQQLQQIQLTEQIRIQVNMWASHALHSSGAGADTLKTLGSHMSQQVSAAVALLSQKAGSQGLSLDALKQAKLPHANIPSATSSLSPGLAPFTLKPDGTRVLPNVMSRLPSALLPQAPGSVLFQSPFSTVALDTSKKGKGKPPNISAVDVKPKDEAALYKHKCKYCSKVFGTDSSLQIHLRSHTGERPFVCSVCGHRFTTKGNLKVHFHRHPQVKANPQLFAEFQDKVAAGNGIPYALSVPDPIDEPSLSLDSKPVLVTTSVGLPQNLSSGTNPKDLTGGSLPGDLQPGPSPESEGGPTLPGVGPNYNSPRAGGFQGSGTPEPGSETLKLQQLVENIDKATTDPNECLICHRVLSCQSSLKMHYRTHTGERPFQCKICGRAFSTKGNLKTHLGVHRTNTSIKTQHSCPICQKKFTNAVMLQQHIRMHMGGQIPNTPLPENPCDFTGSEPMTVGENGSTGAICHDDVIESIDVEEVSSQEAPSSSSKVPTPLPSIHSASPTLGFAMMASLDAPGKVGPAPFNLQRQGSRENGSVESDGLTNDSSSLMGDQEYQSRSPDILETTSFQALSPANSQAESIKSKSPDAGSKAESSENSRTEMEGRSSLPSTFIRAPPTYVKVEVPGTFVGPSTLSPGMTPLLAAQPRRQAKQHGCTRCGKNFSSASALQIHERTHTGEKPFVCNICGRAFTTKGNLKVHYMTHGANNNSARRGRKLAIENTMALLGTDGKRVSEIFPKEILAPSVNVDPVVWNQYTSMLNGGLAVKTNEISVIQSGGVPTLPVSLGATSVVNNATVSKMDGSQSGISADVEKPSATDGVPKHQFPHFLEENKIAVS
Method: universal PBM
Form: double-stranded DNA, one strand shown
Medium: in vitro
Tested at: 600 nM
Setting: 8-mer, flanks averaged, mean of replicates
Reading: higher = stronger binding
Measurement: E-score
CGAAAACC: 0.00809
CCTTTAGA: 0.0734
GCTGCAAA: 0.222
GTGAGGCA: -0.152
AGGCCCAT: -0.275
CCACTTTA: 0.0583
CATAATCC: 0.204
AAGCTAAG: -0.134
ACGTCAAA: 0.162
AAGGAGCA: -0.0406
CGCGCCGA: -0.288
CAGGCAAC: -0.121
ATGGACCA: 0.0214
GCTGTACA: -0.0991
CGAGTAGC: -0.0604
CTCTCAGC: -0.22
CATCAGGG: -0.0982
CGGAGACG: -0.156
TATTTGAA: 0.354
GGTCATCA: 0.107
ATAAGAGC: 0.125
TATACAAA: 0.354
AGCACGTG: -0.0261
ACACCGTC: -0.153
ATAGCCCG: -0.147

For quick reference, copied from above (study 2):
ACGATTGA: -0.057
CCATGCAC: -0.144
ATTGGTGA: -0.246
GATTGCAC: -0.00324
ATACCTGG: -0.2
AAAGGAGA: -0.06
GGTGCACA: -0.0554
CCTTTAAC: 0.174
CAGTCCGC: 0.137
ACTTCGTA: -0.128
